Results of several laboratories.
Numbered parts are unrelated; each lists some results of a single study.
Sequence of UniProt P10721 (whole entry, unmodified, looked up): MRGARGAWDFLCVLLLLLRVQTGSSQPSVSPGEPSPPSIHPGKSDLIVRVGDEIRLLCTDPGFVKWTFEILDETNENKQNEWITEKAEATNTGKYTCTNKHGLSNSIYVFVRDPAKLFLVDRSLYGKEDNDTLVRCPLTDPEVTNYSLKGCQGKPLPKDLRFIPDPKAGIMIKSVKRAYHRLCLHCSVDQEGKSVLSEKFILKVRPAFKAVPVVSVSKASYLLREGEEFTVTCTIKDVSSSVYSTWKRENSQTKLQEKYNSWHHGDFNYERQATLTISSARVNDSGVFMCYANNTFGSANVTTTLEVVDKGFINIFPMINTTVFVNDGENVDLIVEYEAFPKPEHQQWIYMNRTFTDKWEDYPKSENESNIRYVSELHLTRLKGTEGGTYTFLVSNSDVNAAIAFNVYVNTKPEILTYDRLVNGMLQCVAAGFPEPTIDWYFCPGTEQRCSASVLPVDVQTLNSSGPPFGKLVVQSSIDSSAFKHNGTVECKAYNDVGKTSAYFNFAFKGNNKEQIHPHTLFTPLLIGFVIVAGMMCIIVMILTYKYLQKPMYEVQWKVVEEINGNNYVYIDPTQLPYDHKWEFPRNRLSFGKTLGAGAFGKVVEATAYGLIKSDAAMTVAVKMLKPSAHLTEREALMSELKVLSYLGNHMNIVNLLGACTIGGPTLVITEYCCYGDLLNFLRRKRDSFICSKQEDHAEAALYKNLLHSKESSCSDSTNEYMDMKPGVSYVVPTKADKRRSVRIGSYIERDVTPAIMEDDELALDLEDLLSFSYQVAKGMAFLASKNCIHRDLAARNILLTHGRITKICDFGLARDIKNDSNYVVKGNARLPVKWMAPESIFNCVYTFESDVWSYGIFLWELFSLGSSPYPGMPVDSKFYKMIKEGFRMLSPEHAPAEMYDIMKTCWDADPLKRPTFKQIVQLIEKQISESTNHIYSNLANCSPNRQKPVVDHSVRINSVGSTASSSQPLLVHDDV
Sequence of UniProt P11309 (whole entry, looked up): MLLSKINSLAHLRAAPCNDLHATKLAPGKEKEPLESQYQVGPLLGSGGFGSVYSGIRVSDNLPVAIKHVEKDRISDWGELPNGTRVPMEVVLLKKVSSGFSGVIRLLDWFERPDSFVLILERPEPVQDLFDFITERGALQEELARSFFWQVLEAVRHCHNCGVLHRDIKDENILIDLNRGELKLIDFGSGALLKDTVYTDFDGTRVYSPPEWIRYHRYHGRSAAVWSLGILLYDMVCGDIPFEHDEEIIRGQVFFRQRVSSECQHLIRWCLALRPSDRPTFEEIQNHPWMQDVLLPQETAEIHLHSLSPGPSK
Sequence of UniProt P27361 (whole entry, looked up): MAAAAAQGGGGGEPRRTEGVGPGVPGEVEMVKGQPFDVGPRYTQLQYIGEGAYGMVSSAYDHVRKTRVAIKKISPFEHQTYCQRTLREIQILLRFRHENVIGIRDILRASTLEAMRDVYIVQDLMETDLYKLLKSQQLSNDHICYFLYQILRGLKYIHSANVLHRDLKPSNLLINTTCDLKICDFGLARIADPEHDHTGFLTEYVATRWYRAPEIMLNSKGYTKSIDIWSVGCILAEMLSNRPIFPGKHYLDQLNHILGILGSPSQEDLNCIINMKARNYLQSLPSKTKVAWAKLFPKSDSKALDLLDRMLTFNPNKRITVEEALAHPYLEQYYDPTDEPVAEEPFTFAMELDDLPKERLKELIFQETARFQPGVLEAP
Sequence of UniProt P78356 (whole entry, looked up): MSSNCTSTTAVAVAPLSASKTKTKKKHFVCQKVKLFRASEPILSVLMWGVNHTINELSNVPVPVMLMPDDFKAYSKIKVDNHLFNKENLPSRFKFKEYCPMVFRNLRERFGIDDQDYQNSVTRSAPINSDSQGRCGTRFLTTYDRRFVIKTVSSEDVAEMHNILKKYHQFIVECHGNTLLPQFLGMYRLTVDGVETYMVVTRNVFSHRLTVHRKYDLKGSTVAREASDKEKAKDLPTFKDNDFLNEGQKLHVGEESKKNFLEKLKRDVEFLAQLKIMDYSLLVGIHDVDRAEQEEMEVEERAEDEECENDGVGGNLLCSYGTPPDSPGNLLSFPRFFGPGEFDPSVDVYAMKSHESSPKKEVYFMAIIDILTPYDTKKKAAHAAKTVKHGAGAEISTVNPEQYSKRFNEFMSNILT
Sequence of UniProt Q9UKI8 (whole entry, looked up): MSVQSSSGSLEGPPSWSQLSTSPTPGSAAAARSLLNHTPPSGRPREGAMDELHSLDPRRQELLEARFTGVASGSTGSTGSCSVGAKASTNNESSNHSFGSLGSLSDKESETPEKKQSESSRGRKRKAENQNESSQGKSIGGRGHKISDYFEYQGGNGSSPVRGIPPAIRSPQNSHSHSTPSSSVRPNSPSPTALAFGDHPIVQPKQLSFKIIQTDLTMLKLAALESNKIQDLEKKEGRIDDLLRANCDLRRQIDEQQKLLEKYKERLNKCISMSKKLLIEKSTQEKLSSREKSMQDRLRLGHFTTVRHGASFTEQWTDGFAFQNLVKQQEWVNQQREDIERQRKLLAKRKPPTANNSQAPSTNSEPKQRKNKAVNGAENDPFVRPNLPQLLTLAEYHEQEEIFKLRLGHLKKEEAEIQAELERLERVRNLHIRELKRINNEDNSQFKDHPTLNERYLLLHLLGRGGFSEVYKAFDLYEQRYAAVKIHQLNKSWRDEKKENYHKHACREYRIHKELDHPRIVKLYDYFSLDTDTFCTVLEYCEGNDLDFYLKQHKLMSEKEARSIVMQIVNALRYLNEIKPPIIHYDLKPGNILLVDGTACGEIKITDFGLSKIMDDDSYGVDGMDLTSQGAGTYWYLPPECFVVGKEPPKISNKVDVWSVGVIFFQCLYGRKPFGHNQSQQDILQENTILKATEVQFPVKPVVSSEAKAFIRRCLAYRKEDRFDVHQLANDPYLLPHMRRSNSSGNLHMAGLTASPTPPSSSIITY
Sequence of UniProt Q9Y2H9 (whole entry, looked up): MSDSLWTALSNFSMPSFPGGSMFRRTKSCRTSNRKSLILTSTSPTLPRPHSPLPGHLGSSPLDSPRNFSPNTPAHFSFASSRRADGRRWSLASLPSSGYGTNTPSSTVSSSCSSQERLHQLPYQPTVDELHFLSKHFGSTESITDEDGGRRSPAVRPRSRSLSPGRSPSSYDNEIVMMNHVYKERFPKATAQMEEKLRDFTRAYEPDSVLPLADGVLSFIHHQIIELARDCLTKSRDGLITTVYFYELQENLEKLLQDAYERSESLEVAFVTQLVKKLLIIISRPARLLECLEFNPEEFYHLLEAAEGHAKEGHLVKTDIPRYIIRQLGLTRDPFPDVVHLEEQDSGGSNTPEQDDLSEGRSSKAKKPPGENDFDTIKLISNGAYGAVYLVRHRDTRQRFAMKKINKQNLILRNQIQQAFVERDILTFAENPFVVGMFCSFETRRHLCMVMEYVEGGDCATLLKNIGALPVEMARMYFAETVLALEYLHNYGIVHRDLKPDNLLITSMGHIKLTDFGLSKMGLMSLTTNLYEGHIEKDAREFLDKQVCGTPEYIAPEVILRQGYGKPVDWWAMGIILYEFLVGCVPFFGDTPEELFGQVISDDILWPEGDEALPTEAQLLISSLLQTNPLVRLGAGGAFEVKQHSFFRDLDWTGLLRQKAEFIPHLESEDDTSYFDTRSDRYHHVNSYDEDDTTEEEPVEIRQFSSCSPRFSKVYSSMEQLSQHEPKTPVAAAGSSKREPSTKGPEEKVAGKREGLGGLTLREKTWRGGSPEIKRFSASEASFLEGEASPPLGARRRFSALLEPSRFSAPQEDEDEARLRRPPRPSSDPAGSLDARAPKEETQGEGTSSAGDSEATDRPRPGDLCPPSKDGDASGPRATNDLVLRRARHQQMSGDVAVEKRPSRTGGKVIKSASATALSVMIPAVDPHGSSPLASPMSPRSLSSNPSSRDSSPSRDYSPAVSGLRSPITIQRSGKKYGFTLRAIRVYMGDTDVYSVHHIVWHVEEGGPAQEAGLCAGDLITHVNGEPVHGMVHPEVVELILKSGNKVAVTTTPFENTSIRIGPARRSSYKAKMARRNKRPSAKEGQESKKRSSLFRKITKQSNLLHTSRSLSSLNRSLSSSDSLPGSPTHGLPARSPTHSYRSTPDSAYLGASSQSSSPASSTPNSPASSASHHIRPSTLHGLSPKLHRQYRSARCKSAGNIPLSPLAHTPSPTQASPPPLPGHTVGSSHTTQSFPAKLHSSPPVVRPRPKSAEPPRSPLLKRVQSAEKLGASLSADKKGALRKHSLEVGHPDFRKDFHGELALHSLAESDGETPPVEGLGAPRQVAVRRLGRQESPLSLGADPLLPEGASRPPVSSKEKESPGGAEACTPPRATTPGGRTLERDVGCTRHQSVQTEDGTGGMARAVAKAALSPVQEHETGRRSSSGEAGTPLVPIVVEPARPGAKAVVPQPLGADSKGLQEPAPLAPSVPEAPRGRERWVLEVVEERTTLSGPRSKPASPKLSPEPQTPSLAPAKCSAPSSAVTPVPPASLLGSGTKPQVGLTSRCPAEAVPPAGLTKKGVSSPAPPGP
Sequence of UniProt O75914 (whole entry, looked up): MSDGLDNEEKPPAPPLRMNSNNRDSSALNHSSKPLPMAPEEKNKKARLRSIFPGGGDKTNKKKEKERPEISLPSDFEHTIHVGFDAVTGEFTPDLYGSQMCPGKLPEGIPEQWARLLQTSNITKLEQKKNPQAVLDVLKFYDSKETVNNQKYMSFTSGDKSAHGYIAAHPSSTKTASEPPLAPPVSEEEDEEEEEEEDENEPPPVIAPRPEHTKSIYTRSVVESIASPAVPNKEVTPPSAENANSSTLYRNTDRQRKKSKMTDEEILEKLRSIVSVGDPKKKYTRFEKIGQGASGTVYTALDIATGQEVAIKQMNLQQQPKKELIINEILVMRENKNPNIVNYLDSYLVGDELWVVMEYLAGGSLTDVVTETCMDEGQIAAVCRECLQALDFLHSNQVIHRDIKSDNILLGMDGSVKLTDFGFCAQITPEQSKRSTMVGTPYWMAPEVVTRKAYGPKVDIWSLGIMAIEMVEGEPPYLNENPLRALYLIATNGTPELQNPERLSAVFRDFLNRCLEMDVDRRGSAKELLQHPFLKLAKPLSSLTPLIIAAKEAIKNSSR

Study 1
Cell line: A-375
Concentration: 100 µM
Time: 36 h
SMILES | viability [%]
CO/N=C1\CN(c2nc3c(cc2F)c(=O)c(C(=O)O)cn3C2CC2)CC1CN (stereo not drawn) | 45.5
CCOC(=O)[C@H](CCc1ccccc1)N[C@@H](C)C(=O)N1[C@H](C(=O)O)C[C@@H]2CCC[C@@H]21 | 105
C[C@]12CCC(=O)C=C1CC[C@@H]1[C@@H]2[C@@H](O)C[C@@]2(C)[C@H]1CC[C@]2(O)C(=O)CO | 116
COC(=O)c1ccc2c(c1)NC(=O)/C2=C(\Nc1ccc(N(C)C(=O)CN2CCN(C)CC2)cc1)c1ccccc1 | 111
OC[C@H]1O[C@@H](c2ccc(F)c(Cc3cc4ccccc4s3)c2)[C@H](O)[C@@H](O)[C@@H]1O | 71.2
CC(=O)Nc1c(I)c(NC(C)=O)c(I)c(C(=O)O)c1I | 106
Clc1ccccc1CN1CCc2sccc2C1 | 5.97
CCC(=O)O[C@]1(C(=O)SCF)[C@H](C)C[C@H]2[C@@H]3C[C@H](F)C4=CC(=O)C=C[C@]4(C)[C@@]3(F)[C@@H](O)C[C@@]21C | 35.1
O=S(=O)(O)Oc1ccc(C(c2ccc(OS(=O)(=O)O)cc2)c2ccccn2)cc1 | 103

Study 2
Cell line: mouse MPNST tumor cells
Method: high-content nuclear imaging
Refers to: cell number
Concentration: 10 µM
Time: 12 h
Setting: mean of 2 replicates
Reference: plate mean
Reading: higher = more cells
SMILES | nuclei count
CCC1(c2c[nH]cn2)Cc2ccccc2C1 | 1.11 z-score
CCCCCCCCNC(C)C(O)c1ccc(SC(C)C)cc1 (stereo not drawn) | -5.03 z-score
CC(C)N1CCN(c2ccc(C(=O)c3c(-c4ccc(O)cc4)sc4cc(O)ccc34)cc2)CC1 | -1.1 z-score
C#C[C@]1(O)CC[C@H]2[C@@H]3CCC4=CC(=O)CC[C@@H]4[C@H]3CC[C@@]21CC | 0.349 z-score
OCCN(CCO)c1ccc(C(c2ccc(Cl)cc2)c2ccc(N(CCO)CCO)cc2)cc1 | 0.565 z-score
COc1ccc(CNC(=O)Nc2ncc([N+](=O)[O-])s2)cc1 | 4.84 z-score
CC1=C(C(=O)OC2CCCCC2)C(c2ccc([N+](=O)[O-])cc2)C2=C(CC(C)(C)CC2=O)N1 (stereo not drawn) | -4.57 z-score
Cc1cc(C)cc(NC(N)=Nc2ccccc2C(F)(F)F)c1 | 2.17 z-score
C[C@@H]1CN(CC(=O)Nc2ccc3c(c2)Cc2cccc(-c4cc(=O)cc(N5CCOCC5)o4)c2S3)C[C@H](C)O1 | -1.89 z-score
CCCCNc1c(C(=O)OCC)c(C)nc2c1cnn2CC | 0.79 z-score
CC(C)(Sc1ccc(CCN(CCCCC2CCCCC2)C(=O)NC2CCCCC2)cc1)C(=O)O | 0.824 z-score
Cn1cnc2c1c(=O)[nH]c(=O)n2C | -0.767 z-score
COc1ccc(CCC(=O)Nc2nc3ccc(Cl)cc3s2)cc1OC | 1.05 z-score
COc1cc2c(cc1-c1c(C)noc1C)ncc1[nH]c(=O)n([C@H](C)c3ccccn3)c12 | -2.33 z-score

Study 3
Target: Mitogen-activated protein kinase kinase kinase 7 (MAP3K7, Homo sapiens, UniProt O43318)
Read-out: enzyme activity
Mode: inhibitor
Concentration: 0.5 µM
Reference: control
Residues (O43318 1-606): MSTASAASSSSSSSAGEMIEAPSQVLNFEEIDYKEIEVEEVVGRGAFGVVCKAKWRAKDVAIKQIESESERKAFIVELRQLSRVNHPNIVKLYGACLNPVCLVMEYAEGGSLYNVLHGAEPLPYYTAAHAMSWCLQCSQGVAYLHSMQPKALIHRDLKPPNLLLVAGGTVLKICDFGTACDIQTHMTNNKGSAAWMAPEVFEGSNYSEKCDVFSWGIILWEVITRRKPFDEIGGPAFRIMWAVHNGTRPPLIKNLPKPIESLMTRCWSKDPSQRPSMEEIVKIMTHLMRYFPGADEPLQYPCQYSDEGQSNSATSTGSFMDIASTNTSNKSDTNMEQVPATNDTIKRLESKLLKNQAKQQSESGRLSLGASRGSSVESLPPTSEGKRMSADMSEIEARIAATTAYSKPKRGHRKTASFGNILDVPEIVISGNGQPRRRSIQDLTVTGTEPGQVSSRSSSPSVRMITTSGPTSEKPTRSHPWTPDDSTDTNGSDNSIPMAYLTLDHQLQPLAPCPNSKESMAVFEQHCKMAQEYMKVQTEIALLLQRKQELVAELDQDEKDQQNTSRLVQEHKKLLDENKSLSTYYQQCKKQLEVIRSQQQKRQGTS
Compound | remaining activity
C[C@@H]1CCN(C(=O)CC#N)C[C@@H]1N(C)c1ncnc2[nH]ccc12 | 87.5%
CN(C)C[C@H]1CCn2c(c(C3=C(c4cn(C)c5ccccc45)C(=O)NC3=O)c3ccccc32)C1 | 95.3%
CCN(CC)CCNC(=O)c1c(C)[nH]c(/C=C2\C(=O)Nc3ccc(F)cc32)c1C | 18.6%
CN([C@@H](Cc1ccc(OS(=O)(=O)c2cccc3cnccc23)cc1)C(=O)N1CCN(c2ccccc2)CC1)S(=O)(=O)c1cccc2cnccc12 | 93.4%
CCN(CC)CCNC(=O)c1c(C)[nH]c(/C=C2\C(=O)Nc3ccc(Cl)cc32)c1C | 3.51%
O=C(NC(NC(=S)Nc1ccc(F)c([N+](=O)[O-])c1)C(Cl)(Cl)Cl)C(c1ccccc1)c1ccccc1 (stereo not drawn) | 89.7%
O=C(Nc1cccc(Nc2nccc(Nc3cccc(C(F)(F)F)c3)n2)c1)C1CC1 | 87.4%
COc1cc2c(cc1OC)-c1[nH]nc(Nc3cccc(F)c3)c1C2 | 94%
Nc1cccc(-c2cc3c(Oc4cccc(O)c4)ncnc3[nH]2)c1 | 63%
COc1cc2ncnc(Nc3ccc(O)c(Br)c3)c2cc1OC | 100%
Cc1cc2ncc(-c3ccccc3)nc2cc1C | 89.8%
CCOc1nc(NC(=O)Cc2cc(OC)ccc2OC)cc(N)c1C#N | 96.6%
O=C1C(Cl)=C(N2C(=O)CCC2=O)C(=O)c2ccccc21 | 99.5%
Cc1nc2cc3nc(-c4cccs4)cnc3cc2n1C | 92.5%
c1ccc(-c2[nH]ncc2-c2ccnc3ccccc23)nc1 | 98.4%
N#C/C(=C\c1ccc(O)c(O)c1)C(=O)NCc1ccccc1 | 98.1%
O=C1c2ccccc2-c2n[nH]c3cccc1c23 | 59.3%
N#Cc1c(NC(=O)c2cccc3ccccc23)sc2c1CCCC2 | 99.7%
Cn1nc2c3c(cccc31)C(=O)c1ccccc1-2 | 83.9%
c1ccc(-c2cnc(Nc3ccc(OCCN4CCCC4)cc3)s2)cc1 | 102%
Cc1cn(-c2cc(NC(=O)c3ccc(C)c(Nc4nccc(-c5cccnc5)n4)c3)cc(C(F)(F)F)c2)cn1 | 89.2%
Ic1cccc(CSc2nnc(-c3ccncc3)o2)c1 | 102%
COc1cc2ncnc(Nc3cccc(Cl)c3)c2cc1OC | 96.9%
O=c1cc(-c2cccc3c2Sc2ccccc2S3)oc(N2CCOCC2)c1 | 84.5%
CCN(CC)C(=O)c1ccc(Nc2nc(OCC3CCCCC3)c3[nH]cnc3n2)cc1 | 57.1%

Study 4
SMILES: CNCc1ccccc1-c1csc([C@@H](C)Nc2nc(C)nc3cc(OC)c(OC)cc23)c1
Read-out: cell-free assay
Method: competition with immobilised ligand
Concentration: 1 µM
target | remaining binding [%]
EPHA3 (Homo sapiens, UniProt P29320) | 87
KIT (Homo sapiens, UniProt P10721, L576P) | 92
NEK11 (Homo sapiens, UniProt Q8NG66) | 100
PRKACB (Homo sapiens, UniProt P22694) | 100
KIT (Homo sapiens, UniProt P10721, T670I/V559D) | 80
EGFR (Homo sapiens, UniProt P00533) | 90
SBK3 (Homo sapiens, UniProt P0C264) | 100
TLK1 (Homo sapiens, UniProt Q9UKI8) | 100
PIM1 (Homo sapiens, UniProt P11309) | 97
GRK7 (Homo sapiens, UniProt Q8WTQ7) | 83
EGFR (Homo sapiens, UniProt P00533, G719S) | 69
MAST1 (Homo sapiens, UniProt Q9Y2H9) | 76
KDR (Homo sapiens, UniProt P35968) | 93
MAPK3 (Homo sapiens, UniProt P27361) | 94
PAK3 (Homo sapiens, UniProt O75914) | 86
TNIK (Homo sapiens, UniProt Q9UKE5) | 85
PIP4K2B (Homo sapiens, UniProt P78356) | 100
Tyrosine-protein kinase ABL1, non-phosphorylated (ABL1, Homo sapiens, UniProt P00519, Q252H) | 69
